# Assay results collected from several papers.
# Protocols differ between the studies behind these lines. “And” joins repeats or separate records; there may be more than shown. ± gives the spread as reported.
# Cell line: human red blood cells
Structure (SMILES),test,system,conditions,how to read,endpoint,value
CC(C)C[C@H](NC(=O)[C@H](CC(C)C)NC(=O)[C@H](CCCCN)NC(=O)CNC(=O)[C@H](CC(C)C)NC(=O)CNC(=O)[C@H](CO)NC(=O)[C@H](CC(C)C)NC(=O)[C@H](CC(C)C)NC(=O)[C@H](CO)NC(=O)[C@H](CCCCN)NC(=O)[C@H](CC(C)C)NC(=O)[C@H](CCCCN)NC(=O)[C@H](CCCCN)NC(=O)[C@H](C)NC(=O)[C@H](C)NC(=O)[C@H](C)NC(=O)CNC(=O)[C@H](CO)NC(=O)[C@H](Cc1c[nH]c2ccccc12)NC(=O)[C@@H](N)CCCCN)C(=O)O,hemolysis,,1 h,,HC50,> 200 µM
CC[C@H](C)[C@H](NC(=O)[C@H](C)NC(=O)[C@H](CCCCN)NC(=O)[C@H](CCCCN)NC(=O)[C@@H](N)CCCNC(=N)N)C(=O)N[C@@H](CCCCN)C(=O)N[C@@H](CC(C)C)C(=O)N[C@H](C(=O)N[C@@H](CCCCN)C(=O)N[C@@H](CCCCN)C(=O)N[C@@H](CC(C)C)C(=O)N[C@H](C(=O)N[C@@H](CCCCN)C(=O)N[C@@H](CCCCN)C(=O)N[C@@H](CC(C)C)C(=O)N[C@@H](CCCCN)C(=O)N[C@@H](CCCCN)C(=O)N[C@@H](C)C(=O)N[C@@H](CC(C)C)C(=O)N[C@@H](CCCCN)C(=O)O)C(C)C)C(C)C,,PBS,1 mg/L,,hemolysis,1.5%
CC(C)C[C@H](NC(=O)[C@H](CC(C)C)NC(=O)[C@H](CCCCN)NC(=O)CNC(=O)[C@H](CC(C)C)NC(=O)CNC(=O)[C@H](CO)NC(=O)[C@H](CC(C)C)NC(=O)[C@H](CC(C)C)NC(=O)[C@H](CO)NC(=O)[C@H](CCCCN)NC(=O)[C@H](CC(C)C)NC(=O)[C@H](CCCCN)NC(=O)[C@H](CCCCN)NC(=O)[C@H](CC(C)C)NC(=O)[C@H](CC(C)C)NC(=O)[C@H](CC(C)C)NC(=O)CNC(=O)[C@H](CO)NC(=O)[C@H](Cc1c[nH]c2ccccc12)NC(=O)[C@@H](N)CCCCN)C(=O)O,hemolysis,,1 h,,HC50,12.5 to 25 µM
CC[C@H](C)[C@H](NC(=O)[C@H](C)NC(=O)[C@H](CCCCN)NC(=O)[C@H](CC(C)C)NC(=O)[C@@H](N)Cc1ccccc1)C(=O)N[C@@H](CCCCN)C(=O)N[C@@H](CCCCN)C(=O)N[C@@H](Cc1ccccc1)C(=O)NCC(=O)N[C@@H](CCCCN)C(=O)N[C@@H](CCC(=O)O)C(=O)N[C@@H](Cc1ccccc1)C(=O)N[C@@H](CCCCN)C(=O)N[C@@H](CCCCN)C(=O)N[C@H](C(=O)NCC(=O)N[C@@H](C)C(=O)N[C@@H](CCCCN)C(=O)N[C@@H](CC(C)C)C(=O)N[C@@H](CCCCN)C(=O)O)[C@@H](C)CC,,PBS,1 mg/L,,hemolysis,0.225%
CN(C)CCCNC(=O)[C@@H]1NC(=O)[C@@H]2Cc3ccc(cc3)Oc3cc4cc(c3O)-c3ccc5c(c[nH]c5c3)C[C@@H](NC(=O)C(NC(=O)CCCCCN)c3ccc(O)cc3)C(=O)N[C@H](c3ccc(O)cc3)C(=O)N[C@H]4C(=O)N[C@@H](C(=O)N2C)c2ccc(cc2)Oc2cc1ccc2O (stereo partly shown),,PBS,"16 µg/mL, 1 h, pH 7.4, 37 °C",,hemolysis,1.9% and 0.95%
CC(C)C[C@H](NC(=O)[C@H](CCCNC(=N)N)NC(=O)[C@H](CCCNC(=N)N)NC(=O)[C@@H](N)Cc1c[nH]c2ccccc12)C(=O)N[C@@H](Cc1c[nH]c2ccccc12)C(=O)N[C@@H](Cc1c[nH]c2ccccc12)C(=O)N[C@@H](Cc1c[nH]c2ccccc12)C(=O)N[C@@H](CCCNC(=N)N)C(=O)N[C@@H](Cc1c[nH]c2ccccc12)C(=O)O,,,"1 h, 37 °C, 10% hemolysis",,lowest hemolytic concentration,> 256 µg/mL
NCCCC[C@@H](CC(N)=O)NC(=O)[C@H]1CCCC[C@@H]1NC(=O)[C@H]1CCCC[C@@H]1NC(=O)C[C@H](CCCCN)NC(=O)[C@H]1CCCC[C@@H]1NC(=O)[C@H]1CCCC[C@@H]1NC(=O)C[C@H](CCCCN)NC(=O)[C@H]1CCCC[C@@H]1NC(=O)[C@H]1CCCC[C@@H]1N,,,"antifungal MIC, 1 h, pH 7.5",baseline: melittin,hemolysis,0.29 ± 1.73%
CC(C)C[C@H](N)C(=O)N[C@@H](Cc1c[nH]c2ccccc12)C(=O)N[C@@H](CCCNC(=N)N)C(=O)N[C@@H](CCCNC(=N)N)C(=O)N[C@@H](Cc1c[nH]c2ccccc12)C(=O)N[C@@H](CCCNC(=N)N)C(=O)N[C@@H](Cc1c[nH]c2ccccc12)C(=O)N[C@@H](Cc1c[nH]c2ccccc12)C(=O)N[C@@H](Cc1c[nH]c2ccccc12)C(=O)O,,,"1 h, 37 °C, 10% hemolysis",,lowest hemolytic concentration,> 256 µg/mL
CC(C)[C@H](N)CC(=O)N[C@H](CC(=O)N[C@@H](CCCNC(=N)N)CC(=O)N[C@H](CC(=O)N[C@H](CC(=O)N[C@@H](CCCNC(=N)N)CC(=O)N[C@H](CC(=O)N[C@H](CC(=O)N[C@@H](CCCNC(=N)N)CC(N)=O)C(C)C)C(C)C)C(C)C)C(C)C)C(C)C,,,"antifungal MIC, 1 h, pH 7.5",baseline: melittin,hemolysis,0.86 ± 1.9%
N=C(N)NCCC[C@H](NC(=O)[C@H](CCCNC(=N)N)NC(=O)[C@H](CCCNC(=N)N)NC(=O)[C@H](CCC(N)=O)NC(=O)[C@H](CCCNC(=N)N)NC(=O)[C@H](CCCNC(=N)N)NC(=O)[C@H](CCCCN)NC(=O)[C@H](CCCCN)NC(=O)[C@H](CCCNC(=N)N)NC(=O)CNC(=O)[C@H](Cc1ccc(O)cc1)NC(=O)[C@H](Cc1ccccc1)NC(=O)[C@H](Cc1ccccc1)NC(=O)[C@H](Cc1ccccc1)NC(=O)OCC1c2ccccc2-c2ccccc21)C(=O)O,hemolysis,,,minimum concentration causing 10% hemolysis,HC10,> 64 µM

# For quick reference, copied from above:
Structure (SMILES),test,system,conditions,how to read,endpoint,value
NCCCC[C@@H](CC(N)=O)NC(=O)[C@H]1CCCC[C@@H]1NC(=O)[C@H]1CCCC[C@@H]1NC(=O)C[C@H](CCCCN)NC(=O)[C@H]1CCCC[C@@H]1NC(=O)[C@H]1CCCC[C@@H]1NC(=O)C[C@H](CCCCN)NC(=O)[C@H]1CCCC[C@@H]1NC(=O)[C@H]1CCCC[C@@H]1N,,,"antifungal MIC, 1 h, pH 7.5",baseline: melittin,hemolysis,0.29 ± 1.73%
